Experimental data gathered from unrelated publications.
A part holds a random share of what one study measured.

Sample 1
Target: POU, POU domain (Salpingoeca helianthica)
Method: Spec-seq
Molecule type: double-stranded DNA, one strand shown
Sample: in vitro
Tested at: not given
Notes: whole probe, mean of replicates
Baseline: not given
Reading: lower = stronger binding
Quantity: relative binding energy
Constant ends, left off below: GAGTCGTCTCGTCAGCAC … CCGTAGAGCACTCAGGTC
Residues (chain): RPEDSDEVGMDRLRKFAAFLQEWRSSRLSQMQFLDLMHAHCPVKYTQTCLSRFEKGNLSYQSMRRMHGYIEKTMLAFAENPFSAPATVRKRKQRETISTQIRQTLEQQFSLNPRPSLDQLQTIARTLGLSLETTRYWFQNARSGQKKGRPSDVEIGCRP
ATGCACAC: 1.48 ln ratio
TGAGTAAT: 0.148 ln ratio
ATGAAAAT: 0.937 ln ratio
GAACTAAT: 0.532 ln ratio
TTCTTAAT: 0.439 ln ratio
ATGCTTAA: 0.311 ln ratio
ATGTGCAT: 1.16 ln ratio

Sample 2
Target: Histone acetyltransferase KAT6A, winged helix 1, GST fusion (KAT6A, Homo sapiens, UniProt Q92794, residues 1-85)
Method: protein binding microarray
Molecule type: double-stranded DNA, one strand shown
Sample: in vitro
Tested at: not given
Notes: 8-mer, flanks averaged, mean of 2 arrays, mostly near background
Baseline: not given
Reading: higher = stronger binding
Quantity: E-score
Residues (chain): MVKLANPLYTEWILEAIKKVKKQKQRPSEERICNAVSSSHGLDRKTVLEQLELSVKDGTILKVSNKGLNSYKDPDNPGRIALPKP
ATTCTGCG: 0.145
CTAACGAA: 0.0438
ATCAGCAT: -0.249
CGTTCAAA: 0.0248
TCAGGAGA: -0.197

Sample 3
Target: Centromere-binding protein 1, full length, N-terminal tag (CBF1, Saccharomyces cerevisiae, UniProt P17106, residues 1-351)
Chain of UniProt P17106 (whole entry, looked up): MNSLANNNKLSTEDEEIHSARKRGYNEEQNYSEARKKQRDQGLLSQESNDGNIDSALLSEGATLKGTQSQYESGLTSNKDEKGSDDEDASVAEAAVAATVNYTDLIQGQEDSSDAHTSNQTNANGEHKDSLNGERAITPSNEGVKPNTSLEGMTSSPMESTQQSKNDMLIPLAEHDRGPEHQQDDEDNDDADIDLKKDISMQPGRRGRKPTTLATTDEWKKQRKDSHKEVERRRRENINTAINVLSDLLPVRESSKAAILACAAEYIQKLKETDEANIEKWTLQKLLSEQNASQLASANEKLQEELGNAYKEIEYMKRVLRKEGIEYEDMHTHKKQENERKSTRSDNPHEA
Method: protein-binding microarray
Molecule type: double-stranded DNA, one strand shown
Sample: in vitro
Tested at: 0.8 µM
Notes: whole 60-bp probe, no competitor
Reading: higher = stronger binding
Quantity: fluorescence intensity
Constant ends, left off below: … GTCTTGATTCGCTTGACGCTGCTG
CTAATGAAAATTTACCACGTCAACTATTTATGTTTC: 469 a.u.
CTACGAAGTTTTTATCATGTGTTAGCGTGATGGTTC: 981 a.u.
GAAACATTGCTACATCAGCAGATCAAAGCATTTTAG: 654 a.u.
CTATGTGAAAACGGTGATGATAGTAAAAAAATATTC: 569 a.u.
GAAACAAAAAAGCATCAGGTATTTAATGGATAATAG: 555 a.u.
TGTACGAAGCTATTATGCGTGGTTATAGTAGTTAGG: 534 a.u.

Other studies, line by line
PhoQ, residues 284 288 289 292 302 303 NSMLDC  fold induction (PhoP, residues 12 14 15 18 19 HEGLL (Escherichia coli, UniProt P23836); Sort-seq, refers to: YFP reporter; E. coli; PhoQ-PhoP variant library, together with: 10 µM Mg2+; baseline: high Mg2+ state, higher = stronger signaling): 10.5

A few entries again (sample 2):
CGTTCAAA: 0.0248
TCAGGAGA: -0.197
